Assay results collected from several papers.
Each numbered part is a random draw from the data of one study; scales do not carry over between parts.

Series 1
Target: Ras GTPase-activating protein-binding protein 1, full length (G3BP1, Homo sapiens, UniProt Q13283)
Chain of UniProt Q13283 (whole entry, looked up): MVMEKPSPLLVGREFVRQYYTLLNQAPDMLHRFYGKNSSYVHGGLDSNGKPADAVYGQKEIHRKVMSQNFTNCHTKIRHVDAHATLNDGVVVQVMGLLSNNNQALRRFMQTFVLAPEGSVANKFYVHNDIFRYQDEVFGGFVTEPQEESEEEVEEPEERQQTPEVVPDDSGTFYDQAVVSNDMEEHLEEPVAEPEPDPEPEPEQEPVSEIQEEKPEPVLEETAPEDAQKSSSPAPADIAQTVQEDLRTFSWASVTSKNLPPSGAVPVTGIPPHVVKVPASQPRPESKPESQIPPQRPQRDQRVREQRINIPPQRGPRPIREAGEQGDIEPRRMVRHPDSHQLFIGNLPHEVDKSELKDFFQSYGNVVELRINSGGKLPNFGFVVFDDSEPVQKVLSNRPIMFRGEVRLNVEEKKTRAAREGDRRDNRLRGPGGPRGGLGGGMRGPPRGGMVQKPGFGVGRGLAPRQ
Method: RNA Bind-n-Seq
Molecule type: RNA
Sample: in vitro
Tested at: 200 nM
Setting: whole 134-nt RNA, ends assumed
Together with: 150 mM LiCl
Reference: input library
Direction: higher = stronger binding
Measurement: log2 enrichment
All molecules: 7-deaza-guanosine replaces G
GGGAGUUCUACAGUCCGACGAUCGCAGGAAGUAAAAACUAAUGGAAAUGCUUCGGAUAGUGGCAGGGGUGGGGGUUGCUAAGGAAAGGGUGGGAUGGGAGUGGGUAAAGAGUUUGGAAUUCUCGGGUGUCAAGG: -0.0513
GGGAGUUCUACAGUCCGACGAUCCACAAACAACACGCACCCACACAGACACAGAGGGAAGGGGUUGGGAUGGGGACAGGGUGCACAGCAGGGCGGGGUAGGACCCCAGCCCCUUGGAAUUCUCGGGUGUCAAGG: 0.284
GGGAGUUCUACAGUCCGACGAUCGCAGGAAGUAAAAACAAAUGGAAAUGCUUCGGAUAGUGGCAGGGGUGGGGGUUGCUAAGGAAAGGGUGGUAUGGGAGUGGGUAAAGAGUUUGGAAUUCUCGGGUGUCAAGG: 0.107
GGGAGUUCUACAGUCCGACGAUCCUCAAGUCCUGUGCUACACAUCGUAUGUACCGAAUCGGAGGAGGUUUUUUUGGAAAGUAUUAUGUUACGCCGUUCGGAUCUGCACUUCCAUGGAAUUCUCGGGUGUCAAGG: -0.237
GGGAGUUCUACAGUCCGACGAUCCUCAAGUCCUGUGCUACACAUCGUAUGUACCGAAUCGGGGAGGGGAGGGAGGGGAAAGUAUUAUGUUACGCCGUUCGGAUCUGCACUUCCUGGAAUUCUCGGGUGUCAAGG: 0.132
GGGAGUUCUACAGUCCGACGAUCCCUGUGCUACACAUCGUAUGUACCGAAUCGGGGUUUUUUGGGUUUUUUGGGGUUUUUUGGGAAAGUAUUAUGUUACGCCGUUCGGAUCUGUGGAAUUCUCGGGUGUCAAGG: 0.655
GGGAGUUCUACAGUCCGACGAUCUCCUCAAGUCCUGUGCUACACAUCGUAUGUACCGAAUCGGAGGAGGGGAGGGAAAGUAUUAUGUUACGCCGUUCGGAUCUGCACUUCCAGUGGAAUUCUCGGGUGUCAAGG: -0.6
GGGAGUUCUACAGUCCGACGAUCACCAUGCAGGUGGGCAUCUUUGGGCAGUGGGGCAAGGGGGGGAUAGGGAGGGGGGUAACACUUUGGGAACAGGUGGUCCCAGGUCGUUUCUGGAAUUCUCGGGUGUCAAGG: 0.314

Series 2
Target: RNA binding protein fox-1 homolog 2, RRM domain, GST-SBP tag (RBFOX2, Homo sapiens, UniProt O43251-10, residues 100-194)
Method: RNA Bind-n-Seq
Molecule type: RNA
Sample: in vitro
Tested at: 365 nM
Setting: natural RNA segment, single round, ends assumed
Reference: no-protein control
Direction: higher = stronger binding
Measurement: RBNS enrichment (R)
Target sequence (chain): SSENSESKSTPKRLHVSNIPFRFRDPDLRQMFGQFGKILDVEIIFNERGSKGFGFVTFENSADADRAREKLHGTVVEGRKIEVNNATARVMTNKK
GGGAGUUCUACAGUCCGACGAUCAUUGAGACCGUUUUCCACCAAGUUAGCCUCAUUUGUUCAGUAACACAUCUUACCGAGGAAAGGAGGCAAGGAAGUGCCCUUUUGUGUCUCCUCAUUGUUCACAGCCUGUUUGGAAUUCUCGGGUGCCAA: 0.342
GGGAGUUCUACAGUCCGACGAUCUGAGGAAGGCACAGGCAAGCAAGGAGCCAUGAACCACAGGGCCCCAGCCAGCACAGGAUUUGUCCUCAUUCCGUGGGUGAUGGAUGAAUCUAUUGGAGUCCUGAAUAAAUUGGAAUUCUCGGGUGCCAA: 0.442
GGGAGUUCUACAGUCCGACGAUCUAGCCAUGGAAGCAUAGCCACUGGAAAGGAACAGUGCAUGAGGCAGAUGUUCGUUUCUGGUGGAAAUUGGGCCCCUGUGUUCCUCCAGGGCAAGUCUCAGGGGAAGCUCAUGGAAUUCUCGGGUGCCAA: 2.08
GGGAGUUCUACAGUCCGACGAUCUGUCAGACUGUGGCUUAGCUCAGUGUGACCCAGACCUUGUGACCUGUAGCUGCCGAACCAGUAGCUCCUAAGAGCACAACCCAGGAUGGCCCAUCUGCUGCCCACCAAGUUGGAAUUCUCGGGUGCCAA: 0.261
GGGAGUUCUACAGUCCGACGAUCUGUUUCAGGUUCACGUUCAGCUCUGACCUUGAGUUCAUUUCCAGUGCUUGCCUUCUCUCCAAGGCCAUGGCAUGAGUUCACAGAAUAUAUAUUUUCGGCAGAUUGAGCUUUGGAAUUCUCGGGUGCCAA: 0.345
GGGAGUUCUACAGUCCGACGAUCCGCCGUGGACUCUCGUGCAGGACUUGGGACUCGUGCUGAAGCCUUGGGGUCAAGGAACAUUUCAGUGGGUUUUUGCCCCAUCUCCUCCUCCCGUCCCCUGCUCAUGGGACUGGAAUUCUCGGGUGCCAA: 0.379
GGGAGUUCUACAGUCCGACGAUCUAGCUGUUCACCUUGAAGACAGGCCUUAGUGUCACGCAGGUUUAUUACAGUGGCAUGAUGGUGACCUGUGCAGUCACUGAGCUGUAGGAGUGAGGCAUGUGCUGCACGUCUGGAAUUCUCGGGUGCCAA: 13.9
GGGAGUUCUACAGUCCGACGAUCGAAAAAUGGGCAACUUUUACAUUUGACUACAUUAUAUACCUAUGUAUAAAAGUGCGGUGUAACCAUAGACCAUAGCUGCAGGAUAACCAAUUAGUCACUCUUAGAGUAAUUGGAAUUCUCGGGUGCCAA: 0.317
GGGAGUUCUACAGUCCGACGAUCCAAAAUAGGGAAUUAACUUUUGUACAGUCUGGGCAUUUACAUGUAUUUUUAAUGUAUUACAAUUUGGUAAUUAUGUGCACAUGAAAUUAAUAAAAGUUACUUCCUGUUAUUGGAAUUCUCGGGUGCCAA: 0.594

Series 3
Target: RING finger protein unkempt homolog, zinc fingers 1-6, GST-SBP tag (UNK, Homo sapiens, UniProt Q9C0B0, residues 30-357)
Chain of UniProt Q9C0B0 (30-357, looked up): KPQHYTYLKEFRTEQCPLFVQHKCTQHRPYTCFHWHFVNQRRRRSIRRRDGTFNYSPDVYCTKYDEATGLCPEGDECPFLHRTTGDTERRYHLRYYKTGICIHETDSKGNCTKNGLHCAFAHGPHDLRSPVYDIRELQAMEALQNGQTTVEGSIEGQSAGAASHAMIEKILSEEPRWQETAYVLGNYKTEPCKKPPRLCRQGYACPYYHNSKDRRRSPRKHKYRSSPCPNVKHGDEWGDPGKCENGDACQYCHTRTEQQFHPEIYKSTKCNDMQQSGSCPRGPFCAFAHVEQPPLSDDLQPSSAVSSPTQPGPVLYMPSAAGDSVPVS
Method: RNA Bind-n-Seq
Molecule type: RNA
Sample: in vitro
Tested at: not given
Setting: RNA with constant flanks, human and mouse sites, ends assumed
Reference: input RNA pool
Direction: higher = stronger binding
Measurement: bound/input enrichment
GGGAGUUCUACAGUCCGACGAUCAAGGCCCUGCAGGAGCAGCUCAGUGAGAUUCGGAGUCGAGAAGAAGAGCCGUUUUCAUUUUAUAGCGAUCAAACAUCGUAUCUGAGUAUUUGCCUUGAAGAGCACAAUCAGUUCCAAUUGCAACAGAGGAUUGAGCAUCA: 0.413 ratio
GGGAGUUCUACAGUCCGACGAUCAGAGAACAUGUGAGAAUUCACACGCAAGAGCAGCUCUAUAAAUGUGAACAAUGUGGGAAGGCUUUUACCUCUUCCAGAUCAUUCCGAGGUCAUUUGAGGACGCACACUGGAGAGAAGCCUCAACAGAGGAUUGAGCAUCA: 0.177 ratio
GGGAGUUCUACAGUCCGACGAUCGAGGGAAGGGAUGAGUCUUCAAGAAUGUCUACGUCAGAUGUACCACCUAGAUCUCAUAUUUUCAGAAGAGAUUCAAAUGAAGUAGUUCAUCUUGAAGCACAGGGUGACUCCCUUGGGGCUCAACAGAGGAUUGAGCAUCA: 0.257 ratio
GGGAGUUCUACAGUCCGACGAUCGAGAGAAUGUGUGUGUGUGUGUGUGUGCGCGUGCGUGAGAGGAUAAACUUUAACCUUCCCACUAGUUUAUUCUUUUACUUUAGUGUUUUCUUAGUUAGAAAACCACUAUUAACAUUAAAUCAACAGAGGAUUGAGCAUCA: 2.38 ratio
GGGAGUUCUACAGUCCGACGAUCACAUUUGUUCAGCAUUAUGCUUUUAUUAUGAAAACACUGAAGAAAAGUCACGAAUCAGAUACAAUGUCCAACAGAAUUGUGCAUAUUAGUGUUCAGUUGUUCAGCAAUGAGGAGCUAGCCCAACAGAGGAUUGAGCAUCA: 0.161 ratio
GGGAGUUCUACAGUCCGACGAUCUUAAGGAUUCCACUCCACCCUUUUUCUCCUCUUCCAGGAAAGGGAGGUGAAAGAAUUGUAUUUUUCUCCCAGCUCUAAAUCAUCUAUGUGUUAAAUAUCCGUACCGAUCUGUCUUGAAGACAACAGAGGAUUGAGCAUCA: 0.337 ratio
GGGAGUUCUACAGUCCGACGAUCCCCGGGGCAAGAGUUUAACAUCUUCGGCCCUGCAUUCCUACAUCUUGUGUCUGUACACGUUCUUAAGCAGCGUGUCAGGAGAGCACCCUGUUGUCUUCUGGUAAAUGUGUGCAGGGUCAUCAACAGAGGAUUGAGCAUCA: 0.167 ratio
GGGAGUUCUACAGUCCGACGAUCGUAGCGCUUGCAGCAUGGCUGACCAACUGACUGAAGAGCAGAUUGCAGAAUUCAAAGAAGCUUUUUCACUAUUUGACAAAGAUGGUGAUGGAACUAUAACAACAAAGGAAUUGGGAACUGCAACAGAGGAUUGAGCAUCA: 0.319 ratio
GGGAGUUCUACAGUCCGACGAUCAAUGGAUUCAUAAAUGAAGACUUUAUAGUUUGGAUGCGUACUGCAGCAUUACCUACUUUUCGUAAGUUGUAUCGUCUCAUAGAGCGGAGAGAUGAUUUACACCCAACAUUACCAGCUGGACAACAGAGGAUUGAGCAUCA: 0.307 ratio
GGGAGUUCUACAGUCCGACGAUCUUGUCCCACGAGGAGCACCCCCACAGCCACCCUCUCUAUGGACAUGGCGUAUGCAAGUGGCCAGGCUGUGAGGCGGUUUGUGACGACUUCCCAGCCUUUCUAAAACAUCUCAACAGUGAGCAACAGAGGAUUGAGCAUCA: 0.0662 ratio
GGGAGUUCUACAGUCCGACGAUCGGAGAGGUGGUUUCUAAAAGUGAUUGAAGCAGUUUGUGCAGUGUUUGUAAUUCUUGGGUAAGAGCCCAGGAUUUUGAAGAUAAUAGUUUUUUAGUAAAGUGCUACUAAAUGUAGUAAAUCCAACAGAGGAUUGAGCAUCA: 8.64 ratio

Series 4
Target: Histone acetyltransferase KAT6A, winged helix 2, GST fusion (KAT6A, Homo sapiens, UniProt Q92794, residues 85-181)
Method: protein binding microarray
Molecule type: double-stranded DNA, one strand shown
Sample: in vitro
Tested at: not given
Setting: 8-mer, flanks averaged, mean of 2 arrays, mostly near background
Reference: not given
Direction: higher = stronger binding
Measurement: E-score
Target sequence (chain): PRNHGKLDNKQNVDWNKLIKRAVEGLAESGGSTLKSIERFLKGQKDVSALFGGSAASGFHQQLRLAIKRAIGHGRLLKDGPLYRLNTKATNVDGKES
CTCCTTTC: -0.0401
CGGAGTTA: 0.0186
GGGGGTAC: 0.00217
ACCAATCG: 0.00228
TAGGGAGA: -0.0769
ACGGGGTA: -0.132
AGTGCTTC: -0.0465
GAGCCCTA: 0.0418
ATGATCAT: 0.0397
ACGCCTCT: -0.0882
CGTATCCC: -0.071
ACTTGTGA: -0.113
AGGTGGTC: -0.102
TCACCGGA: 0.0136
ACCTTGGC: -0.04
CGTTGGGC: -0.064
ATTCTGGC: 0.0331
AACTGTCA: -0.202
ACTGGCAA: -0.0577
CTTAACAA: -0.0413

Repeated from above (series 3):
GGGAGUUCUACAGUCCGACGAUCAGAGAACAUGUGAGAAUUCACACGCAAGAGCAGCUCUAUAAAUGUGAACAAUGUGGGAAGGCUUUUACCUCUUCCAGAUCAUUCCGAGGUCAUUUGAGGACGCACACUGGAGAGAAGCCUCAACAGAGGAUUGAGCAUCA: 0.177 ratio
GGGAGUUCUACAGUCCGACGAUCGAGGGAAGGGAUGAGUCUUCAAGAAUGUCUACGUCAGAUGUACCACCUAGAUCUCAUAUUUUCAGAAGAGAUUCAAAUGAAGUAGUUCAUCUUGAAGCACAGGGUGACUCCCUUGGGGCUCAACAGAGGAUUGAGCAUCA: 0.257 ratio
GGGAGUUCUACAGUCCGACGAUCGAGAGAAUGUGUGUGUGUGUGUGUGUGCGCGUGCGUGAGAGGAUAAACUUUAACCUUCCCACUAGUUUAUUCUUUUACUUUAGUGUUUUCUUAGUUAGAAAACCACUAUUAACAUUAAAUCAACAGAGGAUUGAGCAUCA: 2.38 ratio
